Measured values gathered from unrelated publications.
Compare with care: the assays were run in different laboratories. ± marks the error that the study gave.

| SMILES | test system | conditions | tissue uptake [%ID/g] |
| --- | --- | --- | --- |
| N=C(N)NCCC[C@@H]1NC(=O)[C@H](CC(=O)NC23CNCCNCC(N)(CNCCNC2)CNCCNC3)NC(=O)[C@@H](Cc2ccccc2)NC(=O)[C@H](CC(=O)O)NC(=O)CNC1=O [copper-64 labelled] | Nu/Nu mouse, male, tumour-bearing, liver | intravenous, 10 µCi, 1 h | 2.33 ± 0.76 |
| N=C(N)NCCC[C@@H]1NC(=O)[C@H](CCCCNC(=O)CC[C@H](NC(=O)CCOCCOCCOCCOCCNC(=O)CC[C@H](NC(=O)CN2CCN(CC(=O)O)CCN(CC(=O)O)CCN(CC(=O)O)CC2)C(=O)NCCOCCOCCOCCOCCC(=O)N[C@@H](CCC(=O)NCCCC[C@@H]2NC(=O)[C@@H](Cc3ccccc3)NC(=O)[C@H](CC(=O)O)NC(=O)CNC(=O)[C@H](CCCNC(=N)N)NC2=O)C(=O)NCCCC[C@@H]2NC(=O)[C@@H](Cc3ccccc3)NC(=O)[C@H](CC(=O)O)NC(=O)CNC(=O)[C@H](CCCNC(=N)N)NC2=O)C(=O)NCCCC[C@@H]2NC(=O)[C@@H](Cc3ccccc3)NC(=O)[C@H](CC(=O)O)NC(=O)CNC(=O)[C@H](CCCNC(=N)N)NC2=O)NC(=O)[C@@H](Cc2ccccc2)NC(=O)[C@H](CC(=O)O)NC(=O)CNC1=O [indium-111 labelled] | athymic nude mice, female, U-87 MG glioma xenograft, U-87 MG tumour | intravenous, 3 µCi, 72 h | 2.87 ± 1.45 |
| CSCC[C@H](NC(=O)[C@H](CC(C)C)NC(=O)[C@H](Cc1c[nH]cn1)NC(=O)CNC(=O)[C@@H](NC(=O)[C@H](C)NC(=O)[C@H](Cc1c[nH]c2ccccc12)NC(=O)[C@H](CCC(N)=O)NC(=O)CCCCCNC(=O)CNC(=O)CNC(=O)CNC(=O)CSC(C)=O)C(C)C)C(N)=O [technetium-99m labelled] | nude mouse, PC-3 xenograft, tumor | 30 min, added: excess unlabelled conjugate | 0.51 ± 0.17 |
| CCCC[C@H](NC(=O)COCCOCCNC(=O)c1ccc(NN)nc1)C(=O)N[C@H]1CC(=O)NCCCC[C@@H](C(N)=O)NC(=O)[C@H](Cc2c[nH]c3ccccc23)NC(=O)[C@H](CCCNC(=N)N)NC(=O)[C@@H](Cc2ccccc2)NC(=O)[C@H](Cc2c[nH]cn2)NC1=O [technetium-99m labelled] | C57 mouse, female, B16/F1 melanoma, heart | intravenous, 0.037 MBq, 2 h | 0.08 ± 0.03 |
| N=C(N)NCCC[C@@H]1NC(=O)[C@H](CCCCNC(=O)CCOCCOCCOCCOCCNC(=O)CC[C@H](NC(=O)CCOCCOCCOCCOCCNC(=O)CC[C@H](NC(=O)CN2CCN(CC(=O)O)CCN(CC(=O)O)CCN(CC(=O)O)CC2)C(=O)NCCOCCOCCOCCOCCC(=O)N[C@@H](CCC(=O)NCCOCCOCCOCCOCCC(=O)NCCCC[C@@H]2NC(=O)[C@@H](Cc3ccccc3)NC(=O)[C@H](CC(=O)O)NC(=O)CNC(=O)[C@H](CCCNC(=N)N)NC2=O)C(=O)NCCOCCOCCOCCOCCC(=O)NCCCC[C@@H]2NC(=O)[C@@H](Cc3ccccc3)NC(=O)[C@H](CC(=O)O)NC(=O)CNC(=O)[C@H](CCCNC(=N)N)NC2=O)C(=O)NCCOCCOCCOCCOCCC(=O)NCCCC[C@@H]2NC(=O)[C@@H](Cc3ccccc3)NC(=O)[C@H](CC(=O)O)NC(=O)CNC(=O)[C@H](CCCNC(=N)N)NC2=O)NC(=O)[C@@H](Cc2ccccc2)NC(=O)[C@H](CC(=O)O)NC(=O)CNC1=O [indium-111 labelled] | female athymic nude mice, bone | intravenous, 3 µCi, 1 h, U-87 MG glioma xenograft | 1.2 ± 0.19 |
| N=C(N)NCCC[C@@H]1NC(=O)[C@H](CCCCNC(=O)CNC(=O)CNC(=O)CNC(=O)CC[C@H](NC(=O)c2ccc(NN=Cc3ccccc3S(=O)(=O)O)nc2)C(=O)NCC(=O)NCC(=O)NCC(=O)NCCCC[C@@H]2NC(=O)[C@@H](Cc3ccccc3)NC(=O)[C@H](CC(=O)O)NC(=O)CNC(=O)[C@H](CCCNC(=N)N)NC2=O)NC(=O)[C@@H](Cc2ccccc2)NC(=O)[C@H](CC(=O)O)NC(=O)CNC1=O [technetium-99m labelled] | athymic nu/nu mouse, female, U-87 MG glioma xenograft, kidney | intravenous, 30 min | 23.3 ± 2.78 |
| CC(C)C[C@H](NC(=O)[C@H](Cc1ccc(O)cc1)NC(=O)[C@@H](CCCNC(=N)N)NC(=O)[C@@H](CO)NC(=O)[C@H](Cc1ccccc1)NC(=O)[C@H](CC1CCCCC1)NC(=O)[C@H](CC(=O)O)NC(=O)CCC(C(=O)O)N1CCCN2CCN(CCCN(CC(=O)O)CC2)CC1)C(=O)N[C@@H](Cc1c[nH]c2ccccc12)C(=O)N[C@@H](CO)C(=O)O (stereo partly shown) [copper-64 labelled] | female NMRI nude mice, bone | 22 h p.i. | 0.9 ± 0.3 |
| N=C(N)NCCC[C@@H]1NC(=O)[C@H](CCCCNC(=O)CC[C@H](NC(=O)CCOCCOCCOCCOCCNC(=O)CN2CCN(CC(=O)O)CCN(CC(=O)O)CCN(CC(=O)O)CC2)C(=O)NCCCC[C@@H]2NC(=O)[C@@H](Cc3ccccc3)NC(=O)[C@H](CC(=O)O)NC(=O)CNC(=O)[C@H](CCCNC(=N)N)NC2=O)NC(=O)[C@@H](Cc2ccccc2)NC(=O)[C@H](CC(=O)O)NC(=O)CNC1=O [indium-111 labelled] | female athymic nude mice, heart | intravenous, 3 µCi, 1 h, U-87 MG glioma xenograft | 0.69 ± 0.19 |
| CCCC[C@H](NC(=O)CNC(=O)CNC(=O)c1ccc(NN)nc1)C(=O)N[C@H]1CC(=O)NCCCC[C@@H](C(N)=O)NC(=O)[C@H](Cc2c[nH]c3ccccc23)NC(=O)[C@H](CCCNC(=N)N)NC(=O)[C@@H](Cc2ccccc2)NC(=O)[C@H](Cc2c[nH]cn2)NC1=O [technetium-99m labelled] | C57 mouse, B16/F1 melanoma-bearing, skin | intravenous, 4 h | 0.33 ± 0.12 |
| CCCC[C@H](NC(=O)CCCCCCCNC(=O)c1ccc(NN)nc1)C(=O)N[C@H]1CC(=O)NCCCC[C@@H](C(N)=O)NC(=O)[C@H](Cc2c[nH]c3ccccc23)NC(=O)[C@H](CCCNC(=N)N)NC(=O)[C@@H](Cc2ccccc2)NC(=O)[C@H](Cc2c[nH]cn2)NC1=O [technetium-99m labelled] | C57 mouse, B16/F1 melanoma, tumor | 2 h, added: L-lysine 12 mg co-injected | 25.9 ± 6.8 |

A few entries again:
| SMILES | test system | conditions | tissue uptake [%ID/g] |
| --- | --- | --- | --- |
| N=C(N)NCCC[C@@H]1NC(=O)[C@H](CCCCNC(=O)CC[C@H](NC(=O)CCOCCOCCOCCOCCNC(=O)CC[C@H](NC(=O)CN2CCN(CC(=O)O)CCN(CC(=O)O)CCN(CC(=O)O)CC2)C(=O)NCCOCCOCCOCCOCCC(=O)N[C@@H](CCC(=O)NCCCC[C@@H]2NC(=O)[C@@H](Cc3ccccc3)NC(=O)[C@H](CC(=O)O)NC(=O)CNC(=O)[C@H](CCCNC(=N)N)NC2=O)C(=O)NCCCC[C@@H]2NC(=O)[C@@H](Cc3ccccc3)NC(=O)[C@H](CC(=O)O)NC(=O)CNC(=O)[C@H](CCCNC(=N)N)NC2=O)C(=O)NCCCC[C@@H]2NC(=O)[C@@H](Cc3ccccc3)NC(=O)[C@H](CC(=O)O)NC(=O)CNC(=O)[C@H](CCCNC(=N)N)NC2=O)NC(=O)[C@@H](Cc2ccccc2)NC(=O)[C@H](CC(=O)O)NC(=O)CNC1=O [indium-111 labelled] | athymic nude mice, female, U-87 MG glioma xenograft, U-87 MG tumour | intravenous, 3 µCi, 72 h | 2.87 ± 1.45 |
